Measurements gathered from unrelated publications.
Every numbered part comes from another study and shows a few of its results, in no order.
UniProt P53667, sequence (whole entry, looked up): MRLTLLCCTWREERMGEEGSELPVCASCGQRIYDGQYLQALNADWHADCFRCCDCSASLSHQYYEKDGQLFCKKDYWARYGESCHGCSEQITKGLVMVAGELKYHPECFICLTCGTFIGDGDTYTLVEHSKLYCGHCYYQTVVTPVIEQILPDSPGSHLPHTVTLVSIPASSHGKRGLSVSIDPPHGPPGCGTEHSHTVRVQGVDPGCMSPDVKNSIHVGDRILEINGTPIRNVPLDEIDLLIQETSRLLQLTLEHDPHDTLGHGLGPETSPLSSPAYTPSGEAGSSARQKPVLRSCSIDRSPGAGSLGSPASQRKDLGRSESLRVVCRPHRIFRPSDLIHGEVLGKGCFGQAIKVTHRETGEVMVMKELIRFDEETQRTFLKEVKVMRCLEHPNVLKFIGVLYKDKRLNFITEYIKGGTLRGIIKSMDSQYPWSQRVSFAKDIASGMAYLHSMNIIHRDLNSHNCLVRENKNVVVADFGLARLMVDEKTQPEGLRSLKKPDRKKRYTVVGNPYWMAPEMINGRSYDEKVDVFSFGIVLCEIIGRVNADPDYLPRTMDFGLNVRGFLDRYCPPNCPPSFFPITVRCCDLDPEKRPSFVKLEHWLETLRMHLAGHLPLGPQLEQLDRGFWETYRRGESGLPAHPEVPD
UniProt O94806, sequence (whole entry, looked up): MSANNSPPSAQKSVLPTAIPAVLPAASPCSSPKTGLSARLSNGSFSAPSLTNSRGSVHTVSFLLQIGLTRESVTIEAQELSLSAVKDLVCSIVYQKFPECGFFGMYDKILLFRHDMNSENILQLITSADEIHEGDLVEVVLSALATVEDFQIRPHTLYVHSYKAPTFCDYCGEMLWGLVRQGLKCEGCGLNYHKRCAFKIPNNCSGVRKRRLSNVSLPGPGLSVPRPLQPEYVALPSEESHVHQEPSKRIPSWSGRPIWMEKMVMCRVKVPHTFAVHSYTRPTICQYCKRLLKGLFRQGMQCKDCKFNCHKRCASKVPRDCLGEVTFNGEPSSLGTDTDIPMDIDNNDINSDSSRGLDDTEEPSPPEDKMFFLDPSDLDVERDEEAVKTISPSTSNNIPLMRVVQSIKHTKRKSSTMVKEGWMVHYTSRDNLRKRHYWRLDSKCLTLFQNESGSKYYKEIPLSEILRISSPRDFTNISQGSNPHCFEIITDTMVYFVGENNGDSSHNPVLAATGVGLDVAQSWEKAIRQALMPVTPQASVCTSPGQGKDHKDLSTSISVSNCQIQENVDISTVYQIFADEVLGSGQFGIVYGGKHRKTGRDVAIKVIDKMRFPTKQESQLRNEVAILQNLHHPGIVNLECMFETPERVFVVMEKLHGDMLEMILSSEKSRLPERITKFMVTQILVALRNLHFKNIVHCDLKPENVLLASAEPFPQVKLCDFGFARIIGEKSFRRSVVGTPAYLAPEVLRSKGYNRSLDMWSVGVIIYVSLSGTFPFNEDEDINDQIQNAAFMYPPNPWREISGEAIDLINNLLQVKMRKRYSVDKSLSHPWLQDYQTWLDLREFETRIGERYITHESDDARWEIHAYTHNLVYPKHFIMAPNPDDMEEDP
UniProt Q00536, sequence (whole entry, looked up): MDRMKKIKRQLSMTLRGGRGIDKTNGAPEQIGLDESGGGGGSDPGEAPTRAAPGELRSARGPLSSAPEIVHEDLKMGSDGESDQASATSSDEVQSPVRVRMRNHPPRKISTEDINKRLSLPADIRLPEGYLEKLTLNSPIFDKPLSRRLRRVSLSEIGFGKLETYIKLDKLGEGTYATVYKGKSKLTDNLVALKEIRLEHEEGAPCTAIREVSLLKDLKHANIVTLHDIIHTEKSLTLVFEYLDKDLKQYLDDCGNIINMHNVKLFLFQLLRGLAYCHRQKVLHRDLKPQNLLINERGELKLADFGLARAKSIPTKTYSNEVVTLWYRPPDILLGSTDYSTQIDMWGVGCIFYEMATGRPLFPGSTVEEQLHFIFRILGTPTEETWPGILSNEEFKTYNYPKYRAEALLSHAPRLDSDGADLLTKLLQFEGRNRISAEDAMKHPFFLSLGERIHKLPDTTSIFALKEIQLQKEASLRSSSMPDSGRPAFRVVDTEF
UniProt Q8TD19, sequence (whole entry, looked up): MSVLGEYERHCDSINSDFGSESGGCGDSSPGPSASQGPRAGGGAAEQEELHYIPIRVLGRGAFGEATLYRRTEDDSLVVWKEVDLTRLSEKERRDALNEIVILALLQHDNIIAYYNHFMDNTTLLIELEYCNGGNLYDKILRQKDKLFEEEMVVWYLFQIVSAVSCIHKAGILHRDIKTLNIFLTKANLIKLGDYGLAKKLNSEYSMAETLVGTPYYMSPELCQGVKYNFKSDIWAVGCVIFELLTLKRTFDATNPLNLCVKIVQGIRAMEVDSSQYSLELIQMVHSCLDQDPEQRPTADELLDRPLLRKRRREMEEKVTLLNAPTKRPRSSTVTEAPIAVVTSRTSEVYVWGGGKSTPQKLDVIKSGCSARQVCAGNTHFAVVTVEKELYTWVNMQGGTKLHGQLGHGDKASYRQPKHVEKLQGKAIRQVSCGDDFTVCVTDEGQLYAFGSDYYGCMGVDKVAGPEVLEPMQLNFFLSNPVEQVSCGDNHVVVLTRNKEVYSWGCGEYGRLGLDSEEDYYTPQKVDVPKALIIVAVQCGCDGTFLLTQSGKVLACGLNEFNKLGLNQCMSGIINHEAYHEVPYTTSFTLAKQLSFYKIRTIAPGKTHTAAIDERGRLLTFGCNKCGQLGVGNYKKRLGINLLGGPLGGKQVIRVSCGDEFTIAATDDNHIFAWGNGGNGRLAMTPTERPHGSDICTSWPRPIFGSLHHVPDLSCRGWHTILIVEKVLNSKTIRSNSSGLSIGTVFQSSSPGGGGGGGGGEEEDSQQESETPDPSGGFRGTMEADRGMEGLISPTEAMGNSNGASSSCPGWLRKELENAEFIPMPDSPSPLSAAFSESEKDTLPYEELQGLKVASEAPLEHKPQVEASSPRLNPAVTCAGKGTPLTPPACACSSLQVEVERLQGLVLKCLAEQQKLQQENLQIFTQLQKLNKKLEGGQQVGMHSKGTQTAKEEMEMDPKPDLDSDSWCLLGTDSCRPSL
UniProt P36897, sequence (whole entry, looked up): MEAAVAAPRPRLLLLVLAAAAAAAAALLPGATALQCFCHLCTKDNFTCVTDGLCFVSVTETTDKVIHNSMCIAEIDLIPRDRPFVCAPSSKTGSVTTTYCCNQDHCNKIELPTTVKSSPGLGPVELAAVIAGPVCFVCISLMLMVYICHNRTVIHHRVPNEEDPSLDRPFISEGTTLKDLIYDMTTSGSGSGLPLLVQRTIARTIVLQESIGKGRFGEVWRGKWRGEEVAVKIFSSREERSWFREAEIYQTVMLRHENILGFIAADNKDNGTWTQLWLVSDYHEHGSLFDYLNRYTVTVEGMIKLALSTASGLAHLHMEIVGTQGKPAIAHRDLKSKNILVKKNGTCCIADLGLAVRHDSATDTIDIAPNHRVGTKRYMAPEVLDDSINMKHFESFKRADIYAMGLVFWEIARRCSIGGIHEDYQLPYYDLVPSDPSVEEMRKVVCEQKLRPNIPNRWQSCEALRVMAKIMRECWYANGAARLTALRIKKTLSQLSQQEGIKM

Sample 1 — effect on: cell-free assay; method: competition with immobilised ligand; tested at: 0.1 µM
Compound: CS(=O)(=O)N1CCCC(NC(=O)[C@H](CCC2CCCCC2)NC(=O)c2ccc(CNc3ncnc4c3nnn4-c3ccccc3)cc2)C1 (stereo partly drawn)
| target | remaining binding [%] |
| --- | --- |
| Mitogen-activated protein kinase 4 (MAPK4, Homo sapiens, UniProt P31152) | 96 |
| LIM domain kinase 1 (LIMK1, Homo sapiens, UniProt P53667) | 100 |
| Serine/threonine-protein kinase PAK 3 (PAK3, Homo sapiens, UniProt O75914) | 100 |
| Cyclin-dependent kinase 16 (CDK16, Homo sapiens, UniProt Q00536) | 100 |
| Serine/threonine-protein kinase Nek9 (NEK9, Homo sapiens, UniProt Q8TD19) | 100 |
| Epidermal growth factor receptor (EGFR, Homo sapiens, UniProt P00533, G719S) | 72 |
| Bone morphogenetic protein receptor type-1B (BMPR1B, Homo sapiens, UniProt O00238) | 91 |
| Atypical kinase COQ8A, mitochondrial (COQ8A, Homo sapiens, UniProt Q8NI60) | 97 |
| Leucine-rich repeat serine/threonine-protein kinase 2 (LRRK2, Homo sapiens, UniProt Q5S007) | 51 |
| Ribosomal protein S6 kinase beta-1 (RPS6KB1, Homo sapiens, UniProt P23443) | 100 |
| Phosphatidylinositol 4,5-bisphosphate 3-kinase catalytic subunit beta isoform (PIK3CB, Homo sapiens, UniProt P42338) | 81 |
| cGMP-dependent protein kinase 1 (PRKG1, Homo sapiens, UniProt Q13976) | 95 |

Sample 2 — effect on: enzyme activity; action: inhibitor; tested at: 0.5 µM; baseline: control
Target: Rho-associated protein kinase 2 (ROCK2, Homo sapiens, UniProt O75116)
UniProt O75116, sequence (whole entry, looked up): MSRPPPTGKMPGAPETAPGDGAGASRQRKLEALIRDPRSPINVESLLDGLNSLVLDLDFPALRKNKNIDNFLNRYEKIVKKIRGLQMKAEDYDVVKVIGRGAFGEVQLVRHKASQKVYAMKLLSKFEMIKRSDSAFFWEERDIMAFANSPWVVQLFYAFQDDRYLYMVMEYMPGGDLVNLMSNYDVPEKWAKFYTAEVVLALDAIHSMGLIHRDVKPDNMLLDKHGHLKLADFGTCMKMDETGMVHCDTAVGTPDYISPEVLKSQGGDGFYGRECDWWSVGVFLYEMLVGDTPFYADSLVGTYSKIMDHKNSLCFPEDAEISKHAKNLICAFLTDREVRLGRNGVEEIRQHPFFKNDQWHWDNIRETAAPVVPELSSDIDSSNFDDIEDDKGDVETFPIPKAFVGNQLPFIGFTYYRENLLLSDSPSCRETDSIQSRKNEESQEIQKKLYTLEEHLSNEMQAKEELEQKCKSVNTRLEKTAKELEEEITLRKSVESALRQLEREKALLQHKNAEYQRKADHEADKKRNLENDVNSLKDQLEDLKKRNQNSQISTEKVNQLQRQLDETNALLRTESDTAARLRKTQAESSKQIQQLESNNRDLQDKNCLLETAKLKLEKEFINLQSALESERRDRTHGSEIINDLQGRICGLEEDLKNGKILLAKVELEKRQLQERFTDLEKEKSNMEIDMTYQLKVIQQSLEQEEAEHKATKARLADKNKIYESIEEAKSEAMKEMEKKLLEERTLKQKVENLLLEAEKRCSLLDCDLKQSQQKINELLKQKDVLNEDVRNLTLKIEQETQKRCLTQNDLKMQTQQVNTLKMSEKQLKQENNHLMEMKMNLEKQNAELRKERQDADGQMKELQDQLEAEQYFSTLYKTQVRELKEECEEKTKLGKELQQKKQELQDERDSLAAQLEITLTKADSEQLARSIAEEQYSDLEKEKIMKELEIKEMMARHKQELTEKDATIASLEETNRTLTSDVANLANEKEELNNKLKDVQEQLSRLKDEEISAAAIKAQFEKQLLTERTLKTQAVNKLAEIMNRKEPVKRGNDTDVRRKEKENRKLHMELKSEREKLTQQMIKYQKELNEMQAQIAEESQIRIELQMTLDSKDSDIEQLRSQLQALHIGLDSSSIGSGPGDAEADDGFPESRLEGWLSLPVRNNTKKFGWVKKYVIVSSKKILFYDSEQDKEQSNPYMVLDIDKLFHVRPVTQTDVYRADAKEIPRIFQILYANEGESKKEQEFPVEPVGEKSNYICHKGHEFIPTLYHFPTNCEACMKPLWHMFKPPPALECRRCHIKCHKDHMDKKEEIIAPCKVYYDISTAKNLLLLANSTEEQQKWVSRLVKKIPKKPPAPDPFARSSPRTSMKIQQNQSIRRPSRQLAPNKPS
| SMILES | remaining activity [%] |
| --- | --- |
| O=C1NC(=O)c2c1c1c3ccccc3[nH]c1n1cncc21 | 93.2 |
| COc1cccc(-c2cc(=O)c3ccccc3o2)c1N | 91.5 |
| Nc1nc(Nc2ccc(S(N)(=O)=O)cc2)nn1C(=S)Nc1c(F)cccc1F | 6.22 |
| O=C1NC(=O)/C(=C/c2ccc3c(c2)OC(F)(F)O3)S1 | 92.4 |
| O=C1Cc2c([nH]c3ccc(Br)cc23)-c2ccccc2N1 | 84.6 |
| O=Nc1c(-c2c(O)[nH]c3ccccc23)[nH]c2ccccc12 | 98.5 |
| O=C1NC(=O)c2c1c1c3ccccc3[nH]c1c1[nH]c3cc(Br)ccc3c21 | 72.7 |
| O=C1Nc2ccccc2/C1=C\c1c(Cl)[nH]c2ccccc12 | 90.2 |
| O=c1c(-c2ccc(F)cc2)c(-c2ccncc2)[nH]n1-c1ccc(Cl)cc1 | 89.5 |
| NC(=O)c1ccc(-c2nc(-c3ccc4c(c3)OCCO4)c(-c3ccccn3)[nH]2)cc1 | 93.1 |
| O=c1cc(N2CCOCC2)oc2c(-c3ccccc3)cccc12 | 95.2 |
| O=C(c1ccccc1)c1ccc(N2CCOCC2)cc1O | 96 |
| NC(=O)c1cccc(-c2cc(Nc3ccc(OC(F)(F)F)cc3)ncn2)c1 | 98.5 |
| Cc1cc(Nc2cc(N3CCN(C)CC3)nc(Sc3ccc(NC(=O)C4CC4)cc3)n2)[nH]n1 | 92 |
| COc1cc2c(N3CCN(C(=O)Nc4ccc(OC(C)C)cc4)CC3)ncnc2cc1OCCCN1CCCCC1 | 90.8 |
| CC(C)N(CCC(=O)c1ccc2ccccc2c1)Cc1ccccc1 | 92.8 |
| Oc1cccc(-c2nc(N3CCOCC3)c3oc4ncccc4c3n2)c1 | 94.5 |
| CCCCc1c(-c2ccc(OC)cc2)[nH]c2nccnc12 | 97.2 |
| COc1ccc(COc2ccc(Cc3cnc(N)nc3N)cc2OC)cc1 | 84.1 |
| O=C(O)/C=C/c1cc(Br)c(Br)c(Br)c1Br | 94.2 |
| Clc1ccc(Nc2nnc(Cc3ccncc3)c3ccccc23)cc1 | 95.4 |
| CC(C)n1cnc2c(Nc3cccc(Cl)c3)nc(NCCO)nc21 | 97.5 |
| O=Nc1c(-c2c(O)[nH]c3cc(Br)ccc23)[nH]c2ccccc12 | 92.1 |
| O=C(c1cc2cc(O)ccc2[nH]1)c1cc2cc(O)ccc2[nH]1 | 92.9 |
| c1ccc(-c2n[nH]c3c2oc2ccccc23)cc1 | 87.3 |

Sample 3 — action: inhibitor; tested at: 10 µM; baseline: control
Target: Diamine acetyltransferase 1 (Homo sapiens, UniProt P21673)
Target sequence (P21673 1-171): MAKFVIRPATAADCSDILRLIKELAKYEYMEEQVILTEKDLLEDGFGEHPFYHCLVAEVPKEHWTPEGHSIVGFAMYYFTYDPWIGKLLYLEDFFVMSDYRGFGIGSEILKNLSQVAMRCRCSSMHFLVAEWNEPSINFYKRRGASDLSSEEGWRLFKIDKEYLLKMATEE
| Compound | remaining activity [%] |
| --- | --- |
| O=P(O)(O)O[C@H]1[C@H](OP(=O)(O)O)[C@@H](OP(=O)(O)O)[C@H](OP(=O)(O)O)[C@@H](OP(=O)(O)O)[C@H]1OP(=O)(O)O | 83.8 |
| C[C@@H]1O[C@@H](O[C@H]2[C@H](OC(=O)[C@]34CCC(C)(C)C[C@H]3C3=CC[C@@H]5[C@@]6(C)C[C@H](O)[C@H](O[C@@H]7O[C@H](CO[C@@H]8O[C@H](CO)[C@@H](O)[C@H](O)[C@H]8O)[C@@H](O)[C@H](O)[C@H]7O)C(CO)(CO)[C@@H]6CC[C@@]5(C)[C@]3(C)C[C@H]4O)OC[C@H](O)[C@@H]2O)[C@H](O)[C@H](O)[C@H]1O[C@@H]1OC[C@@H](O)[C@H](O)[C@H]1O | 111 |
| CC1(C)[C@@H](O[C@H]2O[C@H](C(=O)O)[C@@H](O)[C@H](O)[C@H]2O[C@@H]2O[C@H](C(=O)O)[C@@H](O)[C@H](O)[C@H]2O)CC[C@]2(C)[C@H]3C(=O)C=C4[C@@H]5C[C@@](C)(C(=O)O)CC[C@]5(C)CC[C@@]4(C)[C@]3(C)CC[C@@H]12 | 90.1 |
| COc1ccc([C@@H]2CC(=O)c3c(O)cc(O[C@@H]4O[C@H](CO[C@@H]5O[C@@H](C)[C@H](O)[C@@H](O)[C@H]5O)[C@@H](O)[C@H](O)[C@H]4O)cc3O2)cc1O | 102 |
| C[C@H](CC[C@@H](O[C@@H]1O[C@H](CO)[C@@H](O)[C@H](O)[C@H]1O[C@@H]1O[C@H](CO)[C@@H](O)[C@H](O)[C@H]1O)C(C)(C)O)[C@H]1CC[C@@]2(C)[C@H]3CC=C4[C@@H](CC[C@H](O[C@@H]5O[C@H](CO[C@@H]6O[C@H](CO)[C@@H](O)[C@H](O)[C@H]6O)[C@@H](O)[C@H](O)[C@H]5O)C4(C)C)[C@]3(C)[C@H](O)C[C@]12C | 101 |
| CCCCCCCCCCCCCCCCCCCCCC | 102 |
| COc1c2ccoc2c(OC[C@H]2OC2(C)C)c2oc(=O)ccc12 | 86.8 |

Sample 4 — effect on: enzyme activity; action: inhibitor; tested at: 1 µM
SMILES: CC(C)S(=O)(=O)c1ccc2nccc(Nc3ccc4sc(C5CCCC5)nc4c3)c2c1
| target | activity vs control |
| --- | --- |
| RAC-gamma serine/threonine-protein kinase (AKT3, Homo sapiens, UniProt Q9Y243) | 95.5% |
| [Pyruvate dehydrogenase (acetyl-transferring)] kinase isozyme 4, mitochondrial (PDK4, Homo sapiens, UniProt Q16654) | 95% |
| Casein kinase II subunit alpha' (CSNK2A2, Homo sapiens, UniProt P19784) | 102% |
| Aurora kinase A (AURKA, Homo sapiens, UniProt O14965) | 99% |
| TGF-beta receptor type-1 (TGFBR1, Homo sapiens, UniProt P36897) | 94% |
| Serine/threonine-protein kinase DCLK2 (DCLK2, Homo sapiens, UniProt Q8N568) | 123% |
| Serine/threonine-protein kinase D3 (PRKD3, Homo sapiens, UniProt O94806) | 99% |
| Serine/threonine-protein kinase WNK1 (WNK1, Homo sapiens, UniProt Q9H4A3) | 91.5% |
| Serine/threonine-protein kinase B-raf (BRAF, Homo sapiens, UniProt P15056) | 94% |
| Ephrin type-A receptor 3 (EPHA3, Homo sapiens, UniProt P29320) | 130% |

Repeated from above (sample 1):
| target | remaining binding [%] |
| --- | --- |
| Bone morphogenetic protein receptor type-1B (BMPR1B, Homo sapiens, UniProt O00238) | 91 |
| Atypical kinase COQ8A, mitochondrial (COQ8A, Homo sapiens, UniProt Q8NI60) | 97 |
| Leucine-rich repeat serine/threonine-protein kinase 2 (LRRK2, Homo sapiens, UniProt Q5S007) | 51 |
| Ribosomal protein S6 kinase beta-1 (RPS6KB1, Homo sapiens, UniProt P23443) | 100 |
| Phosphatidylinositol 4,5-bisphosphate 3-kinase catalytic subunit beta isoform (PIK3CB, Homo sapiens, UniProt P42338) | 81 |
| cGMP-dependent protein kinase 1 (PRKG1, Homo sapiens, UniProt Q13976) | 95 |
